Experimental data pooled from the literature.
Compare with care: the assays were run in different laboratories. Numbers after ± are the reported error.
Sequence of UniProt P09936 (whole entry, looked up): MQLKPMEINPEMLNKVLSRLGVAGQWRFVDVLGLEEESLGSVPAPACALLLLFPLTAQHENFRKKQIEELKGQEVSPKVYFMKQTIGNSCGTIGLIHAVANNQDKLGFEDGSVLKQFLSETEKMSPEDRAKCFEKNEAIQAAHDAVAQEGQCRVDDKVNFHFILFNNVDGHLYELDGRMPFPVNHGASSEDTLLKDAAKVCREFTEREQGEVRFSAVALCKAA

Structure (SMILES)	tested on	test	test system	setting	endpoint	value
CCCC(=O)OCSc1ccccc1C(=O)NCCn1ccc(=O)c2cc(C)ccc21	HIV-1	viral replication, item: reverse transcriptase	human PBMC, 92HT599	7 days	EC50	1.45 ± 1.4 µM
OC[C@H]1O[C@@H](Oc2cc3c(O[C@@H]4O[C@H](CO)[C@@H](O)[C@H](O)[C@H]4O)cc(O)cc3[o+]c2-c2ccc(O)c(O)c2)[C@H](O)[C@@H](O)[C@@H]1O	HIV-1	viral infection	TZM-bl, NL4-3 (CXCR4-tropic)	48 h	IC50	> 100 µM
CCCC(=O)OCSc1ccccc1C(=O)NCCn1cc(C(=O)NCc2cc(C)ccn2)c(=O)c2cc3c(cc21)OCO3	HIV-1	virus-induced cytopathic effect, inhibitor, XTT	CEM-SS, RF	6 days	EC50	0.78 ± 0.23 µM
OC[C@H]1O[C@@H](O[C@H]2[C@H](Oc3cc4c(O)cc(O)cc4[o+]c3-c3ccc(O)c(O)c3)O[C@H](CO)[C@@H](O)[C@@H]2O)[C@H](O)[C@@H](O)[C@@H]1O	HIV-1	viral infection	TZM-bl, BaL (CCR5-tropic)	48 h	IC50	87.4 µM
Cc1nnc(NN)c2c1[nH]c1ccccc12	HIV-1	viral cytopathic effect, MTT	MT4, IIIB	–	EC50	> 50 µM
N#Cc1ccc(Nc2ncc(Cc3ccc(-c4ccccc4)cc3)o2)cc1	HIV-1	protection from infection	MT-2, IIIB wild type	concentration not given	antiviral activity	inactive
C/C(=N\NC(=O)C1CCCCC1)c1ccccc1O	HIV-1	viral cytopathic effect, MTT	MT4, IIIB	–	EC50	> 20 µM
CCCC(=O)OCSc1ccccc1C(=O)NCCn1cc(C(=O)NCc2cccc(C)n2)c(=O)c2cc3c(cc21)OCO3	HIV-1	virus-induced cytopathic effect, inhibitor, XTT	CEM-SS, RF	6 days	EC50	0.48 ± 0.01 µM
COc1ccc2[nH]cc(C(=O)CC#N)c2c1	Ubiquitin carboxyl-terminal hydrolase isozyme L1 (UCHL1, Homo sapiens, UniProt P09936)	covalent, intact protein LC-MS	–	12.5 µM	labelling	3.65%
O=C1C(O)=Cc2ccccc2/C1=N\Nc1ccc(Cl)cc1	HIV-1	viral cytopathic effect, MTT	MT4, IIIB	–	EC50	> 40 µM
CCCC(=O)OCSc1ccccc1C(=O)NCCn1ccc(=O)c2cc(F)ccc21	HIV-1	virus-induced cytopathic effect, inhibitor, XTT	CEM-SS, RF	6 days	EC50	0.56 ± 0.32 µM
Cc1ccc(-c2ccc3c(c2)C=C(C(=O)Nc2ccc(C[N+](C)(C)C4CCOCC4)cc2)CCC3)cc1	HIV-1	viral attachment	MAGI, Ba-L	washout 3 h post infection	IC90	0.06 µM
O=c1c(O[C@@H]2O[C@H](CO)[C@@H](O)[C@H](O)[C@H]2O)c(-c2ccc(O)c(O)c2)oc2cc(O)cc(O)c12	HIV-1	viral infection	TZM-bl, NL4-3 (CXCR4-tropic)	48 h	IC50	> 100 µM
COc1cc(/C=N/Nc2ccc(S(=O)(=O)Nc3ccccc3C(=O)O)cc2[N+](=O)[O-])ccc1O	HIV-1	viral cytopathic effect, MTT	MT4, IIIB	–	EC50	> 10 µM
CCCC(=O)OCSc1ccccc1C(=O)NCCn1ccc(=O)c2cc(C(F)(F)F)ccc21	HIV-1	virus-induced cytopathic effect, inhibitor, XTT	CEM-SS, RF	6 days	EC50	3.9 ± 1.02 µM
C=CC/N=c1/scc(-c2ccccc2Br)n1/N=C/c1ccccn1	HIV-1	viral cytopathic effect, MTT	MT4, IIIB	–	EC50	> 1 µM
C[C@@H]1O[C@@H](OC[C@H]2O[C@@H](Oc3cc4c(O)cc(O)cc4[o+]c3-c3cc(O)c(O)c(O)c3)[C@H](O)[C@@H](O)[C@@H]2O)[C@H](O)[C@H](O)[C@H]1O	HIV-1	viral infection	TZM-bl, NL4-3 (CXCR4-tropic)	48 h	IC50	34.9 µM
CCCC(=O)OCSc1ccccc1C(=O)NCCC(=O)NCCn1ccc(=O)c2cc3c(cc21)OCO3	HIV-1	virus-induced cytopathic effect, inhibitor, XTT	CEM-SS, RF	6 days	EC50	80.9 ± 21.7 µM
O=C(/C=C/c1ccc(O)c(O)c1)O[C@@H]1C[C@@](O)(C(=O)O)C[C@@H](O)[C@@H]1O	HIV-1	viral infection	TZM-bl, NL4-3 (CXCR4-tropic)	48 h	IC50	> 100 µM
COc1cc(Br)cc(/C=N/NC(=O)c2ccccn2)c1O	HIV-1	viral cytopathic effect, MTT	MT4, IIIB	–	EC50	> 22 µM
OC[C@H]1O[C@@H](Oc2cc3c(O)cc(O)cc3[o+]c2-c2ccc(O)c(O)c2)[C@H](O)[C@@H](O)[C@@H]1O	HIV-1	viral infection	TZM-bl, NL4-3 (CXCR4-tropic)	48 h	IC50	65.8 µM
COc1ccnc2[nH]cc(C(=O)C(=O)N3CCN(C(=O)c4ccccc4)C[C@H]3C)c12	HIV-1	viral replication, inhibitor, pseudovirus neutralization	TZM-bl, 3365.v2.c20	48 h	IC50	> 20 µM
CCCC(=O)OCSc1ccccc1C(=O)NCCOc1ccnc2ccc(C(F)(F)F)cc12	HIV-1	virus-induced cytopathic effect, inhibitor, XTT	CEM-SS, RF	6 days	EC50	> 81.9 µM
OC[C@H]1O[C@@H](Oc2cc3c(O)cc(O)cc3[o+]c2-c2ccc(O)cc2)[C@H](O)[C@@H](O)[C@@H]1O	HIV-1	viral infection	TZM-bl, NL4-3 (CXCR4-tropic)	48 h	IC50	> 100 µM

For quick reference, copied from above:
Structure (SMILES)	tested on	test	test system	setting	endpoint	value
COc1ccc2[nH]cc(C(=O)CC#N)c2c1	Ubiquitin carboxyl-terminal hydrolase isozyme L1 (UCHL1, Homo sapiens, UniProt P09936)	covalent, intact protein LC-MS	–	12.5 µM	labelling	3.65%
O=C1C(O)=Cc2ccccc2/C1=N\Nc1ccc(Cl)cc1	HIV-1	viral cytopathic effect, MTT	MT4, IIIB	–	EC50	> 40 µM
CCCC(=O)OCSc1ccccc1C(=O)NCCn1ccc(=O)c2cc(F)ccc21	HIV-1	virus-induced cytopathic effect, inhibitor, XTT	CEM-SS, RF	6 days	EC50	0.56 ± 0.32 µM
Cc1ccc(-c2ccc3c(c2)C=C(C(=O)Nc2ccc(C[N+](C)(C)C4CCOCC4)cc2)CCC3)cc1	HIV-1	viral attachment	MAGI, Ba-L	washout 3 h post infection	IC90	0.06 µM
